{"data": "Assay results gathered from unrelated publications", "note": "Lines come from different studies, so protocols differ. Values joined by “and” are separate records of one study, mostly repeats; a detail may differ. ± marks the error that the study gave."}
{"Compound": "COC(=O)c1cc(NC2=NC(=O)C(=Cc3ccc(N(C)C)cc3)S2)ccc1OC(C)=O", "cell line": "MCF7", "assay": "GC-MS, refers to: L-Tyrosine", "setting": "1 µM", "scale": "relative to: DMSO", "measurement": "metabolite level", "value": "0.18 fold change"}
{"Compound": "O=C(Nc1nnc2c1c(-c1ccc(Cl)cc1)nc1sc(=Cc3ccco3)c(=O)n12)c1ccccc1 (mixture of isomers)", "cell line": "M14", "assay": "SRB", "setting": "10 µM, NCI60 single-dose screen", "scale": "relative to: untreated", "measurement": "cell growth", "value": "58.5%"}
{"Compound": "O=C(N1CCCC1)n1cc(-c2ccc(-c3ccccc3)cc2)nn1", "cell line": "mouse T cells", "assay": "N-terminal labelling proteomics, refers to: S100A4 N-terminal peptides", "setting": "0.001 µM, 6 h", "scale": "relative to: DMSO", "measurement": "SILAC ratio", "value": 1.05}
{"Compound": "C[C@@H]1Cc2c([nH]c3ccccc23)[C@@H](c2c(F)cc(/C=C/C(=O)O)cc2F)N1C12CC(C1)C2", "cell line": "MCF7/luciferase, wild type", "assay": "cell proliferation", "measurement": "maximum inhibition", "value": "73.5%"}
{"Compound": "COc1cc(N2CCN(C(=O)CCOCCNC(=O)[C@@H]3CCCN3)CC2)ccc1Nc1ncc(Cl)c(Nc2ccccc2P(C)(C)=O)n1", "cell line": "H3122", "assay": "annexin V-FITC/PI flow cytometry", "setting": "500 nM, 24 h", "measurement": "early apoptotic cells", "value": "1.83% and 1.6% and 1.73%"}
{"Compound": "CCC(=CCc1c(O)cc2c(c1O)C(=O)CC(c1ccc(O)cc1)O2)CC (stereo not drawn)", "cell line": "HeLa", "assay": "flow cytometry", "setting": "12 µM, 48 h", "measurement": ">G2 cells", "value": "11.8 ± 0.25%"}
{"Compound": "O=C(Nc1ccccc1)c1cccc([C@@H]2C[C@H]2NC2CCC2)c1 (racemic)", "cell line": "SET-2", "assay": "cell growth, CellTiter-Glo", "setting": "0.1 µM, 7 d", "scale": "relative to: vehicle", "measurement": "relative growth", "value": "94.5% and 89.7% and 96.6%"}
{"Compound": "NC(=O)c1ccc(-c2ccccc2Cl)c2c3c([nH]c12)CC[C@H](N)C3", "cell line": "K562", "assay": "cell growth or viability", "measurement": "IC50", "value": "20.9 nM"}
{"Compound": "CCOc1cncc(-c2ccc(NC(=O)C3(c4ccnc(NS(=O)(=O)C5CC5)n4)CCOCC3)nc2)n1", "cell line": "human Hepatic cancer", "assay": "cell proliferation, inhibitor, CellTiter-Glo viability", "setting": "72 h, 0.1% DMSO", "measurement": "IC50", "value": "8380 nM"}
{"Compound": "C1=[N+]2CCCC[N+]3=Cc4ccc5[n]4[Au-]23[n]2c1ccc2-c1nc2ccccc2nc1-5.F[P-](F)(F)(F)(F)F", "cell line": "M14", "assay": "NCI60 five-dose screen", "measurement": "TGI", "value": "4 -log M"}
{"Compound": "O=C(CC(=O)Nc1ccc2c(/C=C/c3ccccn3)n[nH]c2c1)Nc1ccc(Cl)c(C(F)(F)F)c1", "cell line": "Ba/F3 TEL-VEGFR2", "assay": "cell growth, CCK-8", "measurement": "GI50", "value": "120 nM"}
{"Compound": "Cn1ncc2cc(-c3cncc(Cl)c3N3CCC4(CCNC4=O)CC3)ccc21", "cell line": "LS174T", "assay": "gene expression, microarray, refers to: IL17C mRNA", "setting": "concentration not given, 4 h", "scale": "relative to: untreated cells", "measurement": "log2 fold change", "value": -2.31}
{"Compound": "COc1ccc(NC(=O)c2ccc3[nH]c(-c4ccc(N(C)C)cc4)nc3c2)cn1", "cell line": "HCT116", "assay": "IncuCyte", "setting": "concentration not given, 20 h", "measurement": "dead cell to confluence ratio", "value": "97.8 and 400 and 219"}
{"Compound": "CCCCCCCCN(CCC(=O)Nc1ccccc1)C(=O)c1cccn1C", "cell line": "progeroid mouse fibroblasts, Lmna G609G/G609G", "assay": "MTT", "setting": "2 µM, 72 h", "scale": "relative to: vehicle-treated wild type", "measurement": "viability", "value": "74 ± 9%"}
{"Compound": "CCCCCCc1cccc(C(O)CC(CO)NC(=O)CCCCCCCCCCNC(C)=O)c1 (stereo not drawn)", "cell line": "HeLa", "assay": "HPLC-MS-MS lipidomics, refers to: C18 SM and ceramide", "setting": "1 µM, 24 h", "scale": "relative to: SM over Cer", "measurement": "SM/Cer ratio", "value": "18 ,1"}
{"Compound": "Cc1cc(Cl)cc(-c2ccnc3cc(CN4C(=O)C5C(C4=O)C5(C)C)sc23)c1C[C@@H]1CNCCO1 (stereo partly drawn)", "cell line": "CHP-212 parental", "assay": "annexin V/PI flow cytometry", "setting": "0.1 µM, 48 h", "measurement": "apoptotic cells", "value": "17.4%"}
{"Compound": "CN1CCCNC(=O)c2cccc(c2)C(=O)NCCCN(C)CCCNc2cccc3c2C(=O)c2cccc(c2C3=O)NCCC1", "cell line": "SAS", "assay": "RNA-Seq, refers to: MUTYH mRNA", "setting": "1 µM, 6 h", "scale": "relative to: untreated cells", "measurement": "log2 fold change", "value": 1.07}
{"Compound": "Fc1ccc(Nc2nc(NC3CCCCC3)c3cc(C(F)(F)F)ccc3n2)cc1F", "cell line": "transfected HEK293 cells", "assay": "β-arrestin2 recruitment, negative allosteric modulator, BRET", "setting": "30 min pre-incubation, β1AR ECL1/2 chimera, added: isoproterenol 1 µM", "measurement": "pIC50", "value": 6.4}
{"Compound": "CCN(CC)CC(=O)Nc1cccc(-n2cc(-c3ccc4ccc(-c5cn(-c6cccc(NC(=O)CN(CC)CC)c6)nn5)cc4c3)nn2)c1", "cell line": "RCC4", "assay": "PCR angiogenesis array, refers to: IFNG", "setting": "5 x IC50, 6 h, normoxia", "scale": "relative to: untreated", "measurement": "fold regulation", "value": 1.06}
{"Compound": "C=CC(=O)N1[C@H](c2ccc3c(c2)OCO3)c2[nH]c3ccccc3c2C[C@@H]1C(=O)NC1CC1", "cell line": "rat DRG neurons", "setting": "0.04115 µM, 48 h, added: vincristine 40 nM", "measurement": "mean neuron degeneration", "value": "75%"}
{"Compound": "CC(C)c1ccc(N(C)c2ccc3c(c2)OCC[C@H]3CNc2cnccc2C(=O)O)cc1", "cell line": "MDA-MB-436", "assay": "cell growth or viability, ATP luminescence", "setting": "7 days", "measurement": "IC50", "value": "≥ 10000 nM"}
{"Compound": "CNS(=O)(=O)Nc1nccc(Cc2c(C)c3ccc(Oc4ncccc4F)cc3oc2=O)c1F", "cell line": "Calu-3", "assay": "cell viability", "setting": "7 days", "measurement": "IC50", "value": "2.83 nM"}
{"Compound": "CCN(C(=O)c1cc(F)ccc1Oc1nncnc1N1CCC2(C1)CN([C@H](CCCN(C)CCOC)C(C)C)C2)C(C)C", "cell line": "PLC-PRF-5", "assay": "cell growth or viability", "setting": "7 days", "measurement": "GI50", "value": "> 10000 nM"}
{"Compound": "CC(C)C[C@H](NC(=O)[C@@H]1CCCN1C(=O)[C@H](CCCCN)NC(=O)[C@@H](N)CO)C(=O)N1CCC[C@H]1C(=O)N[C@@H](CCC(=O)O)C(=O)N[C@H](C(=O)N[C@H](C(=O)N[C@@H](CC(=O)O)C(=O)N[C@@H](CCC(=O)O)C(=O)N[C@@H](Cc1ccc(O)cc1)C(=O)NCC(=O)NCCOCCOCCOCCOCCOCCOCCOCCOCCOCCOCCOCCOCCOCCOCCOCCOCCOCCOCCOCCOCCOCCOCCOCCOCCC(=O)N[C@@H](CCCCNC(=O)CC[C@H](C(=O)O)N1CCN(CC(=O)O)CCN(CC(=O)O)CC1)C(=O)N1CCN(CCCN(C)c2ccc3nccc(C(=O)NCC(=O)N4CC(F)(F)C[C@H]4C#N)c3c2)CC1)[C@@H](C)O)C(C)C", "cell line": "HT-1080 expressing hFAP", "assay": "binding, flow cytometry", "setting": "4 °C, apparent", "measurement": "Kd", "value": "13.9 nM"}
{"Compound": "CNC(NN=Cc1ccc([N+](=O)[O-])o1)=[S+][Au-][Cl]", "cell line": "CAKI-1", "assay": "annexin V/PI flow cytometry", "setting": "10 µM, 72 h", "measurement": "cell fraction ANV+/PI+", "value": "2.3 ± 0.5%"}
{"Compound": "COc1cccc(OC)c1-c1cc(C(=O)NC2(C(=O)O)C3CC4CC(C3)CC2C4)nn1-c1ccc(C(=O)N(C)CCOCCOCCN(C)C(=O)[C@H](CCCCNC(=O)[C@H](CC(C)C)NC(=O)C2OC2C(=O)O)NC(=O)CN2CCN(CC(=O)[O-])CCN(CC(=O)[O-])CCN(CC(=O)[O-])CC2)cc1C(C)C.[177Lu+3] (mixture of isomers)", "cell line": "HT-29", "setting": "concentration not given, 30 min", "scale": "relative to: added activity", "measurement": "internalized fraction", "value": "0.72 ± 0.04%"}
{"Compound": "CO[C@@H]1[C@@H](OC(N)=O)[C@@H](O)[C@H](Oc2ccc3c(O)c(NC(=O)c4ccc(O)c(CC=C(C)C)c4)c(=O)oc3c2C)OC1(C)C", "cell line": "HCT-116 parental", "setting": "150 µM, replicate 2", "measurement": "colony count", "value": 17.5}
{"Compound": "Cc1ncsc1-c1ccc(C(C)NC(=O)C2CC(O)CN2C(=O)C(NC(=O)CCCCCCCCCCN2CCCC(Nc3ncc(Cl)c(Nc4ccccc4S(=O)(=O)C(C)C)n3)C2)C(C)(C)C)cc1 (stereo not drawn)", "cell line": "22Rv1", "assay": "RNA-seq, refers to: TP73 mRNA", "setting": "concentration not given", "scale": "relative to: DMSO", "measurement": "log2 fold change", "value": -2.29}
{"Compound": "O=C(NCCSc1ccc2c(/C=C/c3ccccn3)n[nH]c2c1)Nc1ccc(F)c(F)c1", "cell line": "Ba/F3 TEL-VEGFR2", "assay": "cell growth, CCK-8", "measurement": "GI50", "value": "150 nM"}
{"Compound": "COc1ccccc1-c1ccncc1C(=O)Nc1nnc(OCc2ccc(Cl)cc2)s1", "cell line": "PEO1 BRCA2-mutant ovarian cancer", "setting": "1.00 µM, added: olaparib 0.125 µM", "measurement": "colony survival", "value": "0%"}
